# Assay results of several laboratories.
# Every numbered part comes from another study and shows a few of its results, in no order. Changes are numbered by the printed parent chain.

# Sample 1
# Target: RNA binding protein fox-1 homolog 2, RRM domain, GST-SBP tag (RBFOX2, Homo sapiens, UniProt O43251-10, residues 100-194)
# Method: RNA Bind-n-Seq
# Form: RNA
# Medium: in vitro
# Concentration: 365 nM
# Notes: natural RNA segment, single round, ends assumed
# Relative to: no-protein control
# Reading: higher = stronger binding
# Constant ends, left off below: GGGAGUUCUACAGUCCGACGAUC … UGGAAUUCUCGGGUGCCAA
# Residues (chain): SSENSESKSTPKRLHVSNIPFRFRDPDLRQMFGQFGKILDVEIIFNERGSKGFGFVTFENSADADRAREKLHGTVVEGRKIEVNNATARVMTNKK
Oligonucleotide,RBNS enrichment (R)
UAGUUCCGUUGUCAUCAAGCAGGAAGCAAAUGCAACACCGACCAAGGCAGUUUAGGUCAAGAGCUGAGCCAAGGUGCUUGAGGAAGGCUUUGCUACAGGAGUGUAGAGAC,0.312
UAUCAGAAGAUUCAUUUACAGGGAGACAAGCUUGCUGCCCUAAUUCCCAGCUCUCCCCAGUGUCCAGAUCCUCUCUGGAAGAGACUAUAAAAUAAACGUGGGUGCCAGGG,0.615
UGAGGUCCCAGAGCCUGUUCCGUUGGCCCUGGGCCGAGGCCCACAGGUGCUGCCCUUGCUGCUGCUGGUCGGGCACCCAAGUGCGUGAGGGGCUUCAGCCUGUCCCGGGG,0.579
CGCUGUCCUGGUGGUAUUUACAAUGACAUCCUCCUCCUCCAUCACUCCAGGGGUGGUGUCUCGGCCGCCCCUACCAGCUGGCUGAGCCCCCUGGCCUCCUGCGCUCCCUC,0.314
UUGUUAAAAGCAGCAAGAAGCCUGGUAAAACUGUGACUUUUCCCCAAAUGUCAAUCUUUAUUAGAAAGCAUUUUCUAGGUGUGUUUAGUGUGCAAAGAAACUUUCUAACC,0.878
UCCUUUAGCCUUAGCAGUGGGUAUGAGGUGUGCAGGGGGAGCUGGGUGGCUUCACUCCGCCCAUUCCAAAGAGGGCUCUCCCUCCACACUGCAGCCGGGAGCCUCUGCUG,0.334
AUCUGUGAACAUUGUGCUAUGUUCCACCUUGUUUGAAAACUGUGAAACAGUGUGGCAUGCCAACAUCUCUAUAGUGAUUUUUACACGUGAUGUAUUCGGUGUAGCUGAGG,1.04
GCCUGGCUCAGACUGGAAGGGCUGGGGACCGAGGGCUCCCCUGCCUCUGUUCUCCUUUCUGACCCACUGGGAUUUGCUAGCAGGCUGCCCCAGCCCCAUCACCGAAACAC,0.733
GCAUGUGACUGUGAUGCUUUCCAGUCACAUUCAUCACGCACUCAGACCUGUGGCCUGGUGGGACCAGGGCUUCAGGAGCCACAGGAUGGUACAAGCCUCGACAGACACGU,0.685
AACUUUCUGGUUUCUGUCUCUGUGCUCUGACUUUUUGAUUUCAGGUCUAGCCCUGUGCACUUACCUCAGUACUCAGUACUUACUCAGUACUAACUCAGUACUCGUGGGAG,0.291
CCAUUAUCCAUUCCCAAGAUGCCUGAUCAGAAACCAACCAUGAAUGAACCCCUGGCUCCUUCACCACCCCCACGAUUGGUAUGAUGCUGCCGGCACAGCUGGGAUACACA,0.661
CAAAGUCUGUGCCACAUUCCUCACAGCAGGUGUGACUCUUUAAGACCAUGAUAGUGGAGUAAGGGAAAGAGUGAGAUGUAGCGCUCUGGAUGCUUAAAAAGUAAGUGCUU,0.544

# Sample 2
# Target: ABI1, truncated, D143A, DHFR fusion (Arabidopsis thaliana, UniProt P49597)
# Method: DHFR PCA, dose-response
# Medium: yeast
# Notes: Hill fit, mean, not affinity
# Together with: (+)-ABA, dose series
# Reading: lower = more sensitive
# Starting sequence: PYL1, truncated, DHFR fusion (Arabidopsis thaliana, UniProt Q8VZS8); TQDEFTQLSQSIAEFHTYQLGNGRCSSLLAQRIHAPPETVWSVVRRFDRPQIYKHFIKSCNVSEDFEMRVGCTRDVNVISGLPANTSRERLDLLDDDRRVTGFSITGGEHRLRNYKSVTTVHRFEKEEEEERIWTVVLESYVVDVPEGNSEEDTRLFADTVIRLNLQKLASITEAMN
Change,ABA EC50
L8F,4.1 µM
H55S,0.354 µM
F5G,5.78 µM
Q2A,3.82 µM
Q19K,2.6 µM
Y53T,146 µM
R69W,53.4 µM
A35C,6.15 µM
A35R,178 µM
E4T,2.19 µM
R49W,129 µM
I133T,1.47 µM
D96I,442 µM
R49C,2.53 µM
R99T,84.2 µM
R45E,293 µM
H55L,0.745 µM
R88T,4.34 µM
V142L,14.7 µM
Q2C,1.78 µM
D96T,236 µM
E129I,3.32 µM
V76C,5.68 µM
Q7T,2.15 µM
E109K,7.9 µM

# Sample 3
# Target: Ras GTPase-activating protein-binding protein 1, full length (G3BP1, Homo sapiens, UniProt Q13283)
# Chain of UniProt Q13283 (whole entry, looked up): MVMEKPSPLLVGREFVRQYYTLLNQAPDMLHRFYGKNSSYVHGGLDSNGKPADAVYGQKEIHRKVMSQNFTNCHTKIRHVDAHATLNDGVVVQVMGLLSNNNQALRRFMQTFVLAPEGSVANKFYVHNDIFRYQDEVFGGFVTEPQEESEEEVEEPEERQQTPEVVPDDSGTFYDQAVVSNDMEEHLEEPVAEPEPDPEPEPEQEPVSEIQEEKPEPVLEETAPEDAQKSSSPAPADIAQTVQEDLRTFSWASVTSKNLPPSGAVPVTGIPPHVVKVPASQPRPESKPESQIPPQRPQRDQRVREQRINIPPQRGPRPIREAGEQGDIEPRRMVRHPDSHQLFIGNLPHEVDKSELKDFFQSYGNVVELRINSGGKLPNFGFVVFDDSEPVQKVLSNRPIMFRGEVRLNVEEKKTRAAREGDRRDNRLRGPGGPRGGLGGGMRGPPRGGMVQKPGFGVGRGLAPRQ
# Method: RNA Bind-n-Seq
# Form: RNA
# Medium: in vitro
# Concentration: 200 nM
# Notes: whole 134-nt RNA, ends assumed
# Together with: 150 mM KCl
# Relative to: input library
# Reading: higher = stronger binding
# Constant ends, left off below: GGGAGUUCUACAGUCCGACGAUC … UGGAAUUCUCGGGUGUCAAGG
Oligonucleotide,log2 enrichment
CCUGUGCUACACAUCGUAUGUACCGAAUCGGAAAAAAGGGAAAAAAGGGGAAAAAAGGGGAAAGUAUUAUGUUACGCCGUUCGGAUCUGC,-0.495
UGGAGGAGCCAUAGAAUAUUAAGGAUGAAUUCAGGAAGGCCUGAGACCAUGGAAAACUUGCCUGCUCUCUACACUAUUUUCCAAGGAGAG,-0.482
CCUCAAGUCCUGUGCUACACAUCGUAUGUACCGAAUCGGGGCGGGCGGGCGGAAAGUAUUAUGUUACGCCGUUCGGAUCUGCACUUCCAG,1.43
CCUGUGCUACACAUCGUAUGUACCGAAUCGGGCCCCCCCGGCCCCCCCGGCCCCCCCGGGGAAAGUAUUAUGUUACGCCGUUCGGAUCUG,-0.195
UCCUGUGCUACACAUCGUAUGUACCGAAUCGGGGUUUGGGGUUUUUUUGGGGUUUGGGGAAAGUAUUAUGUUACGCCGUUCGGAUCUGCA,1.05
CCUCAAGUCCUGUGCUACACAUCGUAUGUACCGAAUCGGAAAGGAAAGGUGGAAAGUAUUAUGUUACGCCGUUCGGAUCUGCACUUCCAG,-0.207
ACCAUGCAGGUGGGCAUCUUUGGGAAGUGGGGCAAGGGGGGGAUAGGGAGGGGGGAAACACUUUGGGAACAGGUGGUCCCAGGUCGUUUC,1.39
CAAGUCCUGUGCUACACAUCGUAUGUACCGAAUCGGAAAAAAAGGAAAGGUUUGGAAAGUAUUAUGUUACGCCGUUCGGAUCUGCACUUC,-1.44
CCUCAAGUCCUGUGCUACACAUCGUAUGUACCGAAUCGGGAGGGAGGGGAGGGAAAGUAUUAUGUUACGCCGUUCGGAUCUGCACUUCCA,1.6
GCAGGAAGUAAAAACAAAUGGAAAUGCUUCGGAUAGUGGCAGGGGUGGGGGUUGCUAAGGAAAGGGUGGGAUUGGAGUGGGUAAAGAGUU,0.769
CUCAAGUCCUGUGCUACACAUCGUAUGUACCGAAUCGGUUUUUUUGGAGGAGGAAAGUAUUAUGUUACGCCGUUCGGAUCUGCACUUCCA,-0.409
GCAGGAAGUAAAAACAAAUGGAUAUGCUUCGGAUAGUGGCAGGGGUGGGGGUUGCUAAGGAAAGGGUGGGAUGGGAGUGGGUAAAGAGUU,0.786
UUAGAUGAGUGACCGAGGAGGUGGCGUUCCUUUGAGGAAAAUUGACAGACUUUUCAACUACAUGUAUUCAACUGCACCAAGACCUCGUGU,-0.518
UCCUGUGCUACACAUCGUAUGUACCGAAUCGGGGUUUUUGGGGUUUUUGGGUUUUUGGGAAAGUAUUAUGUUACGCCGUUCGGAUCUGCA,0.205

# Sample 4
# Target: RING finger protein unkempt homolog, zinc fingers 1-6, GST-SBP tag (UNK, Homo sapiens, UniProt Q9C0B0, residues 30-357)
# Chain of UniProt Q9C0B0 (30-357, looked up): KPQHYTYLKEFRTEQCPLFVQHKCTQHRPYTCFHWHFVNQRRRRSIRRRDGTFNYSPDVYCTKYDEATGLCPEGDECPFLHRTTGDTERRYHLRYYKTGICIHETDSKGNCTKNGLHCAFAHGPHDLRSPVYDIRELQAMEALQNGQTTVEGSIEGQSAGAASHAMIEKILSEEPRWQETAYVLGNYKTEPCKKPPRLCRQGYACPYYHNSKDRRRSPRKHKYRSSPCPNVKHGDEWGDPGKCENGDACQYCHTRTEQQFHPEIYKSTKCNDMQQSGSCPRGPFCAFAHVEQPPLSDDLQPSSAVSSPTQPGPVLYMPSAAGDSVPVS
# Method: RNA Bind-n-Seq
# Form: RNA
# Medium: in vitro
# Concentration: not given
# Notes: RNA with constant flanks, human and mouse sites, ends assumed
# Relative to: input RNA pool
# Reading: higher = stronger binding
# Constant ends, left off below: GGGAGUUCUACAGUCCGACGAUC … CAACAGAGGAUUGAGCAUCA
Oligonucleotide,bound/input enrichment [ratio]
GGAACGGAGCAAUUUACAGCAAUGAGGGAUUUAUACAUGAAAAAUGGACAAGGAUUUGCAUUAGUUUAUUCCAUCACAGCACAGUCCACAUUUAACGAUUUACAAGACCUGAGAGAACAG,0.805
GAAGCUGACAGUGAUAAUUAUGAAGUUUUAUUCAACCUGGAAGAACUUAAAUUGGAUCAGCCUUUCAUUGAUUGCAUCAGAGUUGCUCCUGAUGAGAAAUACGUGGCUGCCAAGAUAAGG,0.33
ACUGCUGGUUUAACAAUGCAUGCAUCAAUUCUUGCAUAUAUGUUUAAUUUGGUUGAAGAAGGAAAAAUAAGUACAUCAUUAAAUCCUGGAAAUCCAGUUAACAACCAAAUCUUUCUUCAG,0.353
AUUGGUGGUGCUUCUAGUCGAGGUGAAAAUUCUUAUGGACUAGAAACUGUGUGUAAGGAUAUUAGGAAUUUACGAUUUGCUCAUAAACCUGAGGGGCGGACAAGAAGAUCCAUAUUUGAG,2.35
AAAAGACGACGAACUGGAGGCUCUCUGAGAGGUAACCCUUCCUCAAGCCAGGUAGAUGAAGAACAGAUGAAUCGUGUGGUAGAGGAGGAACAGCAACAGCAACUCAGACAACAAGAGGAG,0.0957
CUCAAAGAGCUGCUCUCUUGGAAGGUUCUGAGCACGGAAGACUAUACAACAUGCUUUUCUAGCAAAAAUUUUGUCCAUGAAGCAGUGGACUAUGUUAUCGGUCACUUGAUCCAAGAGAAG,0.215
CAUAGAAUUUAUACUGCUGAGCUGGCACACAUUUACUUUAGGAAACCUAACUGGAAAUGUUAGGUGAGGAACAGAACUGGAGAAUUCAAAAGUGACAUUUUUGUAGCCAACCUCAGUAUA,6.27
GACUCUGUCUCAAAAAAAAAAAAAAGGAAAACUCUGUGAUGGACAUUUGUUUAGUAAAUCCCUUCAGUAUUUAUCCCUCCUUUCCCCACAGCAGCUUUCUUUCCUGUCAACUAGAAAGGA,1.27
GAAUAUAGUCACUCAAUUAAAAUUAUUUAGAUAAAAUUAUUGUUUAUGUUUUCUUUCAAGCAAUCUAUCCUAUUUUUAUCCAUUUGCAAAUGCCAGUUUUGUGUGGUUUCUUAGCAUAUC,19.5
UUAAAAGAAGCAGCCCAGUCAAUUGAACAAAGAUUGAUGAAAAUGGAUCACACUGCAAUCCACCCACAUCUACUUGAUAUGAAAAUUGGUCAAGGCAAAUAUGAGCAAGGGUUCUUUCCA,0.179
UGGCAUACAGACCAGUUUUAGGACUGGUAAUCCAACAGGGACUUACCAGAACGGUUAUGAUAGCACUCAGCAAUAUGGAAGUAAUGUUGCAAAUAUGCACAAUGGUAUGAACCAACAGGC,0.141

# Sample 5
# Target: CCNF, cyclin fold, Cln2 fusion (human)
# Method: yeast growth competition, sequencing
# Medium: yeast
# Notes: weak parent motif
# Relative to: not given
# Reading: higher = stronger binding
# Starting sequence: MASTL docking peptide (human); PMIAKNLMCELDE
Change,normalised enrichment score
D12L,-0.177
N6V,0.213
E10F,0.275
D12F,0.313
L11E,-0.138
M8G,-0.135
M2N,0.0442
E10K,0.129
K5E,-0.439
M2F,0.138
E10H,0.217
L11Y,-0.121
A4Q,-0.488
C9V,0.117
M2R,0.272
I3H,-0.243
E10P,-0.0828
A4F,-0.203
M8C,-0.508

# Excerpt of the above (sample 5):
Change,normalised enrichment score
M8G,-0.135
D12L,-0.177
A4Q,-0.488
E10P,-0.0828
K5E,-0.439
N6V,0.213
L11E,-0.138
D12F,0.313
E10H,0.217
E10F,0.275
I3H,-0.243
M2N,0.0442
